# Measured values of several laboratories.
# Each numbered part is a random draw from the data of one study; scales do not carry over between parts. Positions count from the first letter of the parent shown.

# Sample 1 — method: protein-binding microarray; form: double-stranded DNA, one strand shown; medium: in vitro; tested at: 250 nM; notes: 60-bp whole probe; added: salmon DNA 0.4 mg/ml; baseline: random background probes; direction: higher = stronger binding; shared flanks, not repeated: GCCTAGCAC … GTCTTGATTCGCTTGACGCTGCTG
# Target: Interferon regulatory factor 7, full length, phosphomimetic (IRF7, Homo sapiens, UniProt Q92985, residues 1-503, S101K/S471D/S472D/S475D/S476D/S477D/S483D/S484D/S487D)
# Construct (chain): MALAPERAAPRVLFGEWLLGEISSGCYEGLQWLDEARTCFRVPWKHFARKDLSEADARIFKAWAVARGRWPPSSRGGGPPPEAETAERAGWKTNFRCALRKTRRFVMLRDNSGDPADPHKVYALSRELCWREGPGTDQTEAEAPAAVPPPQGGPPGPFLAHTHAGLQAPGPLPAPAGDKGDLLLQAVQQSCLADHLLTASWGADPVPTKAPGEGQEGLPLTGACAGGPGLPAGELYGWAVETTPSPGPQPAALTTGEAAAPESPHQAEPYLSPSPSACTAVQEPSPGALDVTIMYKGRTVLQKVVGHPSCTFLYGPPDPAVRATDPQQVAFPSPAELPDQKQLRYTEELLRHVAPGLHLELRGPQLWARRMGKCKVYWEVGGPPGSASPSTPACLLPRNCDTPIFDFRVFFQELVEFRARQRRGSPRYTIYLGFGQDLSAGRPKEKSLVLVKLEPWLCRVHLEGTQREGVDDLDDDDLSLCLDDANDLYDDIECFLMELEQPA
Sequence,log fluorescence
GACGGACTGGACTATCGGGGCGTGCTA,-0.606 z-score
TCCACTTTGACTTAAGAGGCGTGCTAG,0.191 z-score
TTAGATTTCAGTCTCTATTAGTGCTAG,1.08 z-score
TTAAATATCAGTATCGATTAGTGCTAG,1.39 z-score
TTAGCTATCGGGACTGGGTTAGTGCTA,-0.503 z-score
TTAGGTATCCTACTGCTTGAGTGCTAG,-0.0777 z-score
TTATATATCGGGTATCGATTAGTGCTA,0.966 z-score
TTGGGTTTCCTTATCCTTTAGTGCTAG,1.97 z-score
GACGGTTTCGGACCGGGGACGTGCTAG,2.37 z-score
TTCATTATTGTTTCCTCTTTGTGCTAG,1.59 z-score
TTAGATATCAGTCTCGTTTAGTGCTAG,2.46 z-score
TCAAGTTTGTAAATCTTACTGTGCTAG,-0.0209 z-score
CCAGTTTTGTGTGTGTGTTTGTGCTAG,0.542 z-score
TAGGCTCTGTGCTTTCCTGATGTGCTA,-0.538 z-score

# Sample 2 — method: protein binding microarray; form: double-stranded DNA, one strand shown; medium: in vitro; tested at: not given; baseline: not given; direction: higher = stronger binding
# Target: Histone acetyltransferase KAT6A, winged helix 2, GST fusion (KAT6A, Homo sapiens, UniProt Q92794, residues 85-181)
# Notes: 8-mer, flanks averaged, mean of 2 arrays, mostly near background
# Residues (chain): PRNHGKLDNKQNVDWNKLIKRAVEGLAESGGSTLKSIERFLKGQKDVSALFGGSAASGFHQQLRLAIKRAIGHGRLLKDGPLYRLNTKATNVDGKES
Sequence,E-score
ATGTCCGG,0.0207
ATGACCAT,-0.0863
AATTATGG,0.0694
CCGCACAC,0.0287
ACTGATCT,0.113
GAGCCGAC,-0.0421
CACGACTA,-0.203
AACCCTCA,-0.0572
AAGTGGCT,-0.0889
CGGGCCCG,0.12
GTAGGGCA,0.00633
CACGACTG,-0.113
ATCCCCAG,-0.222

# Sample 3 — target: CCNA2, cyclin fold, Cln2 fusion (human); method: yeast growth competition, sequencing; medium: yeast; notes: weak parent motif; baseline: not given; direction: higher = stronger binding
# Starting sequence: SLBP docking peptide (human); ARYKRKLLINDFG
Substitution,normalised enrichment score
ARYKRCLLINDFG [K6C],2.16
ARYKRKLLINDLG [F12L],1.96
ARYKRKLLIIDFG [N10I],1.53
ARYKRKLLINIFG [D11I],1.78
ARYKRKLLVNDFG [I9V],0.834
ARNKRKLLINDFG [Y3N],0.892
ARYWRKLLINDFG [K4W],2.04
ARYLRKLLINDFG [K4L],1.5

# Single results of other studies
Molecule,target,test,system,setting,how to read,endpoint,value
"PhoQ, residues 284 288 289 292 302 303 SLSLLA","PhoP, residues 12 14 15 18 19 GHCSL (Escherichia coli, UniProt P23836)","Sort-seq, refers to: YFP reporter",E. coli,"PhoQ-PhoP variant library, added: 10 µM Mg2+","baseline: high Mg2+ state, higher = stronger signaling",fold induction,31.8

# A few entries again (sample 2):
Sequence,E-score
CCGCACAC,0.0287
ACTGATCT,0.113
GAGCCGAC,-0.0421
CACGACTA,-0.203
AACCCTCA,-0.0572
AAGTGGCT,-0.0889
